Published values of several laboratories.
Target: SRSF protein kinase 3 (SRPK3, Homo sapiens, UniProt Q9UPE1)

Structure (SMILES) | effect on | action | technique | tested at | with | inhibition [%]
NC(=O)C[C@H]1CCc2sc3ncnc(O[C@H]4CC[C@H](N5CCOCC5)CC4)c3c21 |  |  | radioisotope kinase | 10 µM |  | 10
CN1CC[C@@H](COc2cnc(C#N)cc2-c2ccn3nc(NC(=O)C4CC4)cc3c2)C1 | enzyme activity | inhibitor |  | 1 µM |  | 6
Cc1nc2c(F)cc(-c3nc(Nc4ccc(CNC(=O)CCCCCCC(=O)NO)cc4)ncc3F)cc2n1C(C)C | enzyme activity | inhibitor |  | 1 µM |  | 80
C=CC(=O)N1Cc2nc(-c3cc(-c4cc(Cl)cnc4Cl)c(F)cc3F)n(-c3ccncn3)c2C1 | cell-free assay | inhibitor |  | 1 µM |  | 2.8
CCn1cc(C(=O)O)c(=O)c2c(N)c(F)c(NC3CCCCC3)cc21 | kinase activity |  |  | 0.1 µM | ATP at Km | -1.9
O=C(Nc1ccccc1)Nc1cccc(O)c1 | binding |  | KINOMEscan competitive binding | concentration not given |  | 92.7
C=CC(=O)Nc1cccc(-c2cnc3[nH]cc(C(=O)NC(C)(C)C)c3n2)c1 | enzyme activity | inhibitor |  | 0.1 µM |  | 0
O=C(Nc1ccccc1)Nc1ccc2c(c1)CCC2 | binding |  | KINOMEscan competitive binding | concentration not given |  | 48
NC(=O)[C@@H](O)C[C@H]1CCc2sc3ncnc(O[C@H]4CC[C@H](N5CCOCC5)CC4)c3c21 |  |  | radioisotope kinase | 10 µM |  | 10
Cc1ccc(NC(=O)Nc2ccccc2)cc1 | binding |  | KINOMEscan competitive binding | concentration not given |  | 56
Cc1cccc(O[C@H]2CCC[C@@H](C(C)CNCc3ccncc3)C2)c1 (relative stereo) | enzyme activity | inhibitor |  | 1 µM |  | -2
N#Cc1ccc(NC(=O)Nc2ccccc2O)cc1 | binding |  | KINOMEscan competitive binding | concentration not given |  | 96.8
CN1CCN(Cc2ccc(-c3ccc(CO[C@H]4CCC[C@@H]4NC(=O)c4cc(-c5cnn(C)c5)cnc4N)cc3)cc2)CC1 | enzyme activity | inhibitor |  | 0.1 µM |  | 4
